Measurements from different studies.
Each numbered part is a random draw from the data of one study; scales do not carry over between parts. Values joined by “and” are separate records of one study, mostly repeats; a detail may differ.

Sample 1
Structure (SMILES): COCC1CC2C(CCC3C(O)CCC32)c2ccc(O)cc21 (centres unmarked)
Cell line: SK-OV-3
Technique: DNA microarray
Measurement: expression ratio
measured: ACTA2; 100 µM; relative to: untreated control: 0.612
measured: ADAMTS14; 25 µM; relative to: untreated: 3.74
measured: UBB; 100 µM; relative to: untreated: 0.926
measured: GAPDH; 100 µM; relative to: untreated control: 0.934 and 0.928 and 0.911 and 0.926 and 0.923
measured: CCL1; 100 µM; relative to: untreated: 5.3
measured: ADAMTS14; 100 µM; relative to: untreated: 4.92
measured: CCL8; 100 µM; relative to: untreated control: 1
measured: ACTB; 100 µM; relative to: untreated control: 0.509 and 0.503 and 0.537 and 0.538 and 0.53
measured: ACTA2; 25 µM; relative to: untreated control: 0.641
measured: GAPDH; 25 µM; relative to: untreated control: 0.818 and 0.819 and 0.856 and 0.857 and 0.83

Sample 2
Cell line: MDA-MB-468
Effect on: cell viability
Technique: CellCounting-Lite
Tested at: 24.69 nM
Temperature: 37 °C
Reading: higher = more viable cells
Measurement: luminescence signal
CCn1cnc2c(NCc3nc4cc(Cl)c(Cl)cc4[nH]3)nc(N3CCN(C(=O)CNC(C)=O)CC3)nc21: 79600 a.u. and 78600 a.u. and 61600 a.u.
CCn1cnc2c(NCc3nc4cc(Cl)c(Cl)cc4[nH]3)nc(N3CCN(C(=O)c4cccnc4)CC3)nc21: 56400 a.u. and 57400 a.u. and 65600 a.u.
CCn1cnc2c(NCc3nc4cc(Cl)c(Cl)cc4[nH]3)nc(N3CCN(C(=O)c4ccncc4)CC3)nc21: 60100 a.u. and 59400 a.u. and 67400 a.u.
CCn1cnc2c(NCc3nc4cc(F)c(F)cc4[nH]3)nc(N3CCn4ncnc4C3)nc21: 393000 a.u. and 419000 a.u.
CCn1cnc2c(NCc3nc4cc(Cl)c(Cl)cc4[nH]3)nc(N3CCn4ncnc4C3)nc21: 84200 a.u. and 69500 a.u. and 75800 a.u.
CC(=O)N1CCN(c2nc(NCc3nc4cc(Cl)c(Cl)cc4[nH]3)c3ncn(C(C)C)c3n2)CC1: 432000 a.u. and 485000 a.u. and 442000 a.u.
CCn1cnc2c(NCc3nc4cc(Cl)c(Cl)cc4[nH]3)nc(N3CCN(C(=O)c4ccccn4)CC3)nc21: 64400 a.u. and 67300 a.u. and 64300 a.u.
CCn1cnc2c(NCc3nc4cc(Cl)c(Cl)cc4[nH]3)nc(N3CCC(NC(C)=O)CC3)nc21: 438000 a.u. and 446000 a.u. and 417000 a.u.
CCn1cnc2c(NCc3nc4cc(Cl)c(Cl)cc4[nH]3)nc(N3CCN(C(C)=O)CC3)nc21: 76100 a.u. and 79500 a.u. and 75000 a.u.
CCn1cnc2c(NCc3nc4cc(Cl)c(Cl)cc4[nH]3)nc(N3CCN(Cc4ccncc4)CC3)nc21: 249000 a.u. and 285000 a.u. and 294000 a.u.

Sample 3
Structure (SMILES): CCN1/C(=C/C=C2\CCCC(/C=C/C3=[N+](CC)c4ccccc4C3(C)C)=C2NCCCCCCCCN2CCC(Nc3nc4ccccc4n3Cc3ccc(F)cc3)CC2)C(C)(C)c2ccccc21
Cell line: U-87 MG
Tested at: concentration not given
Relative to: DMSO
Measurement: log2 fold change
measured: ABLIM3 mRNA: 1.3
measured: PADI3 mRNA: -4.25
measured: ORAI2 mRNA: -1.08
measured: TES mRNA: -1.49
measured: NFKB2 mRNA: 1.2
measured: ACTB mRNA: -1.63
measured: LARP1B mRNA: 0.988
measured: FSCN1 mRNA: -1.4
measured: SLC20A2 mRNA: -1.05
measured: GPR183 mRNA: -2.9
measured: KIZ mRNA: 1.68

Other studies, line by line
Cc1ncsc1-c1ccc(C(CO)NC(=O)C2CC(O)CN2C(=O)C(C(C)C)n2cc(-c3ccc(COc4c(-c5c(C)c(F)cc6[nH]ncc56)c(C5CC5)cc5c(N6CC7CC6CN7)nc(OC6CCOCC6)nc45)cc3)nn2)cc1 (centres unmarked)  ERK1/2 phosphorylation (AsPC-1; in-cell ELISA, measured: phospho-ERK1/2; 3 nM): 82.5% and 87.1% and 84.3%

Excerpt of the above (sample 2):
CCn1cnc2c(NCc3nc4cc(Cl)c(Cl)cc4[nH]3)nc(N3CCC(NC(C)=O)CC3)nc21: 438000 a.u. and 446000 a.u. and 417000 a.u.
CCn1cnc2c(NCc3nc4cc(F)c(F)cc4[nH]3)nc(N3CCn4ncnc4C3)nc21: 393000 a.u. and 419000 a.u.
